Published values pooled from the literature.
Parts stem from different laboratories: compare values within a part only. Substitutions count along the parent as printed.

Sample 1
Target: Centromere-binding protein 1, full length, N-terminal tag (CBF1, Saccharomyces cerevisiae, UniProt P17106, residues 1-351)
Chain of UniProt P17106 (whole entry, looked up): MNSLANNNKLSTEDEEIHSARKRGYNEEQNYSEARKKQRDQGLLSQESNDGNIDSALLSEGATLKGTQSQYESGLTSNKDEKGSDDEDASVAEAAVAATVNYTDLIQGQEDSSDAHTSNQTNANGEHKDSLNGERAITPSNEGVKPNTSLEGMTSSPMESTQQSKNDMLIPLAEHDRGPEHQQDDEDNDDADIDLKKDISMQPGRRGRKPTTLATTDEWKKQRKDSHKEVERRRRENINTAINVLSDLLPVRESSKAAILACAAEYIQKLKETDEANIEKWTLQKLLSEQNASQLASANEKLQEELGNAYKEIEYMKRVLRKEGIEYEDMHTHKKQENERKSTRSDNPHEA
Technique: protein-binding microarray
Form: double-stranded DNA, one strand shown
Matrix: in vitro
Concentration: 0.8 µM
Notes: whole 60-bp probe, no competitor
Direction: higher = stronger binding
| Sequence | fluorescence intensity [a.u.] |
| --- | --- |
| GAAATTTGATCCCGACTGATGATGATTTTCTTCTAGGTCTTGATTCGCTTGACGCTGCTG | 554 |
| GAAAGCTGTTACAAACACATCACGGGCCACCGGTAGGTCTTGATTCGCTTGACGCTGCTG | 1150 |
| GAAATAATTTTCCATGGCGTGCTTTTACCAAAGTAGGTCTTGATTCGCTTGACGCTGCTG | 599 |
| CTAGAACAGTTCGATTCTGATGTAGGCAATGGATTCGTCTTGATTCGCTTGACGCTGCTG | 504 |
| GAAGCCCTTATCAATCACGCTAAAAATTGCCCCTAGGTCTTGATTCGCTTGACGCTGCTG | 562 |
| GAAGTTCGAAAATAGCACGTGCCTATTGATCTTTAGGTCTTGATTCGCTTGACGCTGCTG | 12700 |
| GAAGTGTCACGTGATCAGATGGTCTTTTTTTCATAGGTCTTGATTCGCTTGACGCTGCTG | 42900 |
| GAATGGGGCTTGTTTCACGTTTTCTGTCCCAAATAGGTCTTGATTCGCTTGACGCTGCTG | 555 |
| CTACCCACCCATTCGCACGGGTCTTCTGTGCGATTCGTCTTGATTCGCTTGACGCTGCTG | 558 |
| CTATTTTTTGATGTCTTCGTGATATTTTGCAGATTCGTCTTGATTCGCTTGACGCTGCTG | 575 |
| TGTACGAAGCTATGATGATGGATTATAGTAGTTAGGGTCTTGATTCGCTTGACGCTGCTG | 534 |
| CTAGCAGTGGGTCGTGACATGAATATTCAAAAGTTCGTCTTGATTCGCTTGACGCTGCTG | 1420 |
| GAACAATATTCGGGTGACGCCGCCCCTGTTTGATAGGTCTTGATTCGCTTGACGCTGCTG | 492 |
| TGTACGAAGCTATAGTGGGTGATTATAGTAGTTAGGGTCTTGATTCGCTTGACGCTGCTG | 531 |
| CTAAAAATTCCCCTTTCCGTGATGCGGGTAATATTCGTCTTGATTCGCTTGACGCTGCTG | 515 |
| CTAGCAATTTCCCATAGTCTCATGAAAATTCCTTTCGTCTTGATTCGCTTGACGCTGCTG | 532 |
| GAAACATGTACATATCACGTAAGATGTTCCTATTAGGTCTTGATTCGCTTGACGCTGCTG | 543 |
| CTAATCATAAATCAGCACGCAAACGGTAAAGAATTCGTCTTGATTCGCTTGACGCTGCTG | 524 |
| CTACTTCCTATTTCTGATGCATTGAACAGATCGTTCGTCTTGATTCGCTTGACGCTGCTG | 586 |

Sample 2
Target: XBP1, bZIP domain (human)
Technique: DHFR protein complementation
Matrix: yeast
Notes: single substitutions, most at no-binding floor
Baseline: wild-type JUN-FOS pair
Direction: higher = stronger binding
Starting sequence: JUN, bZIP domain (human); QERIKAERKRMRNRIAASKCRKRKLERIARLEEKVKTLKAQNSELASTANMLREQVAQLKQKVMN; partner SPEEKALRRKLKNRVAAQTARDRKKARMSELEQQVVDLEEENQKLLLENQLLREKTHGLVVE
| Change | binding fitness [natural log] |
| --- | --- |
| E54A | -1.03 |
| T37Q | -0.37 |
| L45R | -1.46 |
| E32N | -1.41 |
| A29T | -0.957 |
| M51V | -0.718 |
| R30N | -0.883 |
| V35C | -1.39 |
| N42D | -1.49 |
| K39G | -1.46 |
| L38G | -1.45 |
| L38F | -1.44 |
| A49N | 0.114 |
| Q55V | -0.844 |
| T48C | -1.15 |
| A46M | -0.595 |
| N42T | -1.49 |
| N42S | -1.5 |

Sample 3
Target: CCND3, cyclin fold, Cln2 fusion (human)
Technique: yeast growth competition, sequencing
Matrix: yeast
Notes: weak parent motif
Baseline: not given
Direction: higher = stronger binding
Starting sequence: CDC6 docking peptide (human); TLKGRRLVFDNQL
| Change | normalised enrichment score |
| --- | --- |
| TLKGRRLVVDNQL [F9V] | -0.00676 |
| TLKGRRLVFDNGL [Q12G] | 0.179 |
| HLKGRRLVFDNQL [T1H] | 0.137 |
| TLKGRPLVFDNQL [R6P] | 0.134 |
| VLKGRRLVFDNQL [T1V] | 0.191 |
| TLKGRRLVRDNQL [F9R] | 0.0126 |
| TLKGRRLVQDNQL [F9Q] | 0.0826 |
| TWKGRRLVFDNQL [L2W] | 0.108 |
| TLKGRRLTFDNQL [V8T] | 0.136 |
| TLKGRRLVFDTQL [N11T] | 0.145 |
| TLKGRRLVFDNQY [L13Y] | 0.157 |
| TLKGRRCVFDNQL [L7C] | 0.0489 |
| TNKGRRLVFDNQL [L2N] | 0.154 |
| TLKGRRLFFDNQL [V8F] | 0.15 |
| TLKDRRLVFDNQL [G4D] | 0.244 |
| TCKGRRLVFDNQL [L2C] | 0.0954 |
| TDKGRRLVFDNQL [L2D] | 0.0493 |
| TLKGRRPVFDNQL [L7P] | 0.0513 |
| TLKGRRLVFTNQL [D10T] | 0.0436 |
| TLKGRDLVFDNQL [R6D] | 0.102 |
| TLKGRRLVFDIQL [N11I] | 0.0453 |
| TLKGRRLVIDNQL [F9I] | 0.214 |
| TLKERRLVFDNQL [G4E] | 0.0386 |
| TLKGRRLVFDNRL [Q12R] | 0.116 |
| TLKGRRFVFDNQL [L7F] | 0.0841 |

Sample 4
Target: RING finger protein unkempt homolog, zinc fingers 1-6, GST-SBP tag (UNK, Homo sapiens, UniProt Q9C0B0, residues 30-357)
Chain of UniProt Q9C0B0 (30-357, looked up): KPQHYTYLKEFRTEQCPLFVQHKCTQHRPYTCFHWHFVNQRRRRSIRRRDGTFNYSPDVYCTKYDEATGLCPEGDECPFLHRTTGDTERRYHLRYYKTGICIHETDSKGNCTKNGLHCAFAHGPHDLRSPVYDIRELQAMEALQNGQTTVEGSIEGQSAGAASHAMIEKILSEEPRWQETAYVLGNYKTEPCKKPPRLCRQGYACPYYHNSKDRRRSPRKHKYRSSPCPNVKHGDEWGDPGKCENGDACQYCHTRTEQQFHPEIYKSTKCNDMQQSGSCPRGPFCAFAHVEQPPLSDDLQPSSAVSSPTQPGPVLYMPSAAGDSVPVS
Technique: RNA Bind-n-Seq
Form: RNA
Matrix: in vitro
Concentration: not given
Notes: RNA with constant flanks, human and mouse sites, ends assumed
Baseline: input RNA pool
Direction: higher = stronger binding
| Sequence | bound/input enrichment |
| --- | --- |
| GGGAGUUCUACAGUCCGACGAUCUGGUGUACAAAUACGACAUUUUUGCAAGAAGGAAUGCCUACUUCUGCACGAUGUGAUGAUUUAGAAGCUUUGAAAAAGAAGGGUUGCCAGCCAAGUGACAUAGAGAAUCCCAGAGGCUCUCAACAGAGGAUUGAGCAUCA | 0.218 ratio |
| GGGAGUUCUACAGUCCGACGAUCGAUCUGUGUAGGUUCUGGAGCAACGUUUUCCCAGUAUUCUUUCAGUUUUUGAACAUCAUGGUGGUUGGAAUUACAGGAGCAGCUGUGGUAAUAACCAUCUUAAAGGUGUUUUUCCCAGUUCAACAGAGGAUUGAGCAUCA | 0.246 ratio |
| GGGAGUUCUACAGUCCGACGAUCCUUACACAUAAACUGGUAUUUUCGAACAAUAGGAAACUAUUUUUUCUCCUUUUUUUACAGUUUUAGUACGUAUCUGGCUUGUAUGUGGAAGACUAAAAAGUUGAUUUGCUAAAUGUGGUCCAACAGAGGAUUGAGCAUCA | 0.358 ratio |
| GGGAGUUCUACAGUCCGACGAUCGCAUGUGGCGAGAUCUCACUGAUGAAGAAAAACAAGAAUAUUUAAACGAAUACGAAGCAGAAAAGAUAGAGUACAAUGAAUCUAUGAAGGCCUAUCAUAAUUCCCCCGCGUACCUUGCUUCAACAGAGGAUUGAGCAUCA | 0.529 ratio |
| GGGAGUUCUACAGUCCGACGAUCAGGUGACCAGCAGGAGAGGUGCUGUCCUUCCCCCUAUUUUUACUGAUAUCUCUGUUGGGAUUUUAAAGGAAAUGACUGCUGGUAGAGCUAUGCAGAACCUACGCUCUCACUCUCCUCUGACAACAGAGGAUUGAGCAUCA | 0.331 ratio |
| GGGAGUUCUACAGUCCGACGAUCACAUUUGAUGAGCUUCGAGAAACCAAAACCUCUGAGUACUUUAGUCUGUCCCACCAGCAGUUAGACUACAGAAUAUUGCUGAUGGAUGAAGAUCAAGACCGGAUAUAUGUGGGGAGCAAACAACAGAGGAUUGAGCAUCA | 0.262 ratio |
| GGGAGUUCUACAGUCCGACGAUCCCCUUUGACGGGCCUUUUGAUGUGAACAGAUGUUUUCUAGGACAAACUAUAAGGACUAAUUUUAAACUUCAAACAUUCCACUUUUGUAAUUUGUUUUAAAUUGUUUUAUGUAUAGUAAGCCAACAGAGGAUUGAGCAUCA | 0.742 ratio |
| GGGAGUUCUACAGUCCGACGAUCCAAAAUUACCAAGAAUACAAUCUGGCCAACAUCAUCUACUACUCUCUGAAGGAGUCCACCACUAGUGAGCAGAGUGCCAGGAUGACAGCCAUGGACAAUGCCAGCAAGAAUGCUUCUGAGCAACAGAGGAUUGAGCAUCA | 0.21 ratio |
